Experimental data from different studies.
Numbers after ± are the reported error.
Chain of UniProt Q13310 (whole entry, looked up): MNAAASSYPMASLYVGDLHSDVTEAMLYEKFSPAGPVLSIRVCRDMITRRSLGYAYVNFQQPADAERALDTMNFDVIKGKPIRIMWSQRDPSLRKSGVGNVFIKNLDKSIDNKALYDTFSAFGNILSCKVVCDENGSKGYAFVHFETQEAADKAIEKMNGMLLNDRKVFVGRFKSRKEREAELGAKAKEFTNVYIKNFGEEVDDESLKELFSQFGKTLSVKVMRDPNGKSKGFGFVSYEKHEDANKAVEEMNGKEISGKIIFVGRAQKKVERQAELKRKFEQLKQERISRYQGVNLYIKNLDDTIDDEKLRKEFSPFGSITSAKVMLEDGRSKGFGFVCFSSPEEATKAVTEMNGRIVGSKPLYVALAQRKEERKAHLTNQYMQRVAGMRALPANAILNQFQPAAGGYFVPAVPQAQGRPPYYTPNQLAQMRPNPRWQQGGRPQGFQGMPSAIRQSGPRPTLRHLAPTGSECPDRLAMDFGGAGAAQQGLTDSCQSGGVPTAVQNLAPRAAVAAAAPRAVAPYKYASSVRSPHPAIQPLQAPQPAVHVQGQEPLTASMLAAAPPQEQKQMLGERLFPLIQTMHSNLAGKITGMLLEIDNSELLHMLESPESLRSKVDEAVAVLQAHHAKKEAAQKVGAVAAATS
Chain of UniProt Q9HB89 (whole entry, looked up): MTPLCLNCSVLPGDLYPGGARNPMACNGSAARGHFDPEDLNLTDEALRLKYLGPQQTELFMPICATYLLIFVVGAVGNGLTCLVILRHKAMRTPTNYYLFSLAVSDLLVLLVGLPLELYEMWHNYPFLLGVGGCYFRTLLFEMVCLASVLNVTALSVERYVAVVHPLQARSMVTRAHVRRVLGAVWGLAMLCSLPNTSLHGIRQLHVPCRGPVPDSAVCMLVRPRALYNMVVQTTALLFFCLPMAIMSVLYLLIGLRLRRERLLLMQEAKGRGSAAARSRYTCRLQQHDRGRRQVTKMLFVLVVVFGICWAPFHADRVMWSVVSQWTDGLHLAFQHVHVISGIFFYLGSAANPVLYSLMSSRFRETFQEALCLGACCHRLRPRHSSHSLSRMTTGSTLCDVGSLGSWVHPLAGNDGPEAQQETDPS
Chain of UniProt Q16584 (whole entry, looked up): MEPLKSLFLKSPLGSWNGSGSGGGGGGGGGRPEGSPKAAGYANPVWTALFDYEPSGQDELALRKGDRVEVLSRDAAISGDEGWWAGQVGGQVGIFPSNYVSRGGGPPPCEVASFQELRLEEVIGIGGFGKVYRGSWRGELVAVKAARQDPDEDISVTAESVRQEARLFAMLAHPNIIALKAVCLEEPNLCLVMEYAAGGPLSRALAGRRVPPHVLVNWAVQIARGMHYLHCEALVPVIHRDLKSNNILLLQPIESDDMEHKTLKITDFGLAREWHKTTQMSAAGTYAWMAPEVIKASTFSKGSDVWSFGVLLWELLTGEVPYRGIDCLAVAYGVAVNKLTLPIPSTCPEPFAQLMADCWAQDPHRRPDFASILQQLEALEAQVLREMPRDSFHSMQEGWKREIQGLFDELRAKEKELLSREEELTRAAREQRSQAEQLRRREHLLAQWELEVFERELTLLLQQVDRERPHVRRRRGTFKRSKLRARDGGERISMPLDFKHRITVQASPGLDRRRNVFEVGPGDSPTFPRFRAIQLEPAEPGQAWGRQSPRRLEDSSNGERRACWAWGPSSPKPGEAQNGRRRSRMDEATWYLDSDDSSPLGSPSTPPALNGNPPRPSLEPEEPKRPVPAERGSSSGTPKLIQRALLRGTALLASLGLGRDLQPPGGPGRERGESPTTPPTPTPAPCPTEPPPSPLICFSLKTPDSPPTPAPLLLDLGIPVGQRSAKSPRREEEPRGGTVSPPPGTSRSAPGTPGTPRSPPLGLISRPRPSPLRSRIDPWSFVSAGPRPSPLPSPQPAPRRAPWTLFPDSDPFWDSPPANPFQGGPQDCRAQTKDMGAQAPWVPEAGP

SMILES | tested on | test | test system | setting | scale | quantity | result
COc1ccc2c3c1O[C@H]1C(=O)CC[C@@]4(O)[C@@H](C2)N(C)CC[C@]314 | – | – | mouse C57BL/6J, carrageenan-induced | ip, 1 mg/kg | – | heat allodynia | decreased
CCNC(CC)C(=O)c1ccc2c(c1)OCO2 (stereo not shown) | – | – | C57BL/6J male mice | sc, 30 mg/kg | – | locomotor recovery time | ~90 min
COc1cc2c(Oc3ccc4[nH]c(C)cc4c3F)ccnc2cc1OCC1(N)CC1 | – | – | paediatric recurrent refractory sarcoma | 8 mg | – | grade 3 sinus tachycardia | 0%
CCN(CC)C(=O)[C@@H]1C=C2c3cccc4[nH]cc(c34)C[C@H]2N(C)C1 | – | – | healthy participants | dose not given, end-of-study assessment | reference: compound over placebo | participants rating session more pleasant | 30%
CC(C)C[C@H](NC(=O)[C@H](CCC(N)=O)NC(=O)[C@H](CO)NC(=O)[C@H](CO)NC(=O)[C@H](CCCNC(=N)N)NC(=O)[C@H](CCCNC(=N)N)NC(=O)[C@H](CCCNC(=N)N)NC(=O)[C@H](CC(C)C)NC(=O)[C@H](Cc1c[nH]cn1)NC(=O)[C@@H](NC(=O)[C@H](CCCCN)NC(=O)[C@H](CCCNC(=N)N)NC(=O)[C@H](CCCNC(=N)N)NC(=O)[C@H](CCCNC(=N)N)NC(=O)[C@H](CCC(N)=O)NC(=O)[C@H](CCCNC(=N)N)NC(=O)[C@H](CCCNC(=N)N)NC(=O)[C@H](CCCCN)NC(=O)[C@H](CCCCN)NC(=O)[C@H](CCCNC(=N)N)NC(=O)CNC(=O)[C@@H](N)Cc1ccc(O)cc1)[C@@H](C)O)C(=O)N[C@@H](CCCCN)C(N)=O | – | GABAA receptor-mediated mIPSCs | CA1 pyramidal neurons, rat | dose not given, 5 min after inhibitory avoidance training | – | mIPSC frequency | decreased
CCCCCn1cc(C(=O)C2C(C)(C)C2(C)C)c2ccccc21 | – | ring immobility | ICR mouse, male | intravenous | – | ED50 | 1 µmol/kg
CN[C@@H](C)C(=O)c1ccccc1 | – | ICSS facilitation, intracranial self-stimulation | rat | – | reference: baseline | Emax | 189%
CC[C@H](C)[C@H](NC(=O)[C@H](Cc1ccccc1)NC(=O)[C@H](CCC(=O)O)NC(=O)[C@H](CCCNC(=N)N)NC(=O)[C@H](C)NC(=O)[C@H](C)NC(=O)[C@H](CCC(N)=O)NC(=O)[C@H](CCC(=O)O)NC(=O)[C@H](CCC(=O)O)NC(=O)[C@H](CC(C)C)NC(=O)[C@H](Cc1ccc(O)cc1)NC(=O)[C@H](CO)NC(=O)[C@H](CO)NC(=O)[C@@H](NC(=O)[C@H](CC(=O)O)NC(=O)[C@H](CO)NC(=O)[C@@H](NC(=O)[C@H](Cc1ccccc1)NC(=O)[C@@H](NC(=O)CNC(=O)[C@H](CCC(=O)O)NC(=O)[C@H](C)NC(=O)CCc1c[nH]cn1)[C@@H](C)O)[C@@H](C)O)C(C)C)C(=O)N[C@@H](C)C(=O)N[C@@H](Cc1c[nH]c2ccccc12)C(=O)N[C@@H](CC(C)C)C(=O)N[C@H](C(=O)N[C@@H](CCCNC(=N)N)C(=O)NCC(=O)N[C@@H](CCCNC(=N)N)C(=O)N[C@@H](CCCCNC(=O)COCCOCCNC(=O)COCCOCCNC(=O)CC[C@H](NC(=O)CCCCCCCCCCCCCCCCC(=O)O)C(=O)O)C(=O)NCC(=O)NCC(=O)N[C@@H](CO)C(=O)N[C@@H](CCCCNc1c(NCCCCCN(O)C(=O)CCC(=O)NCCCCCN(O)C(=O)CCC(=O)NCCCCCN(O)C(C)=O)c(=O)c1=O)C(=O)O)C(C)C [zirconium-89 labelled] | – | – | rat, spleen | sc, 3 nmol/kg, 4 h, ex vivo | – | tissue uptake | 0.12 %ID/g
CO[C@H]1C[C@@H]2CC[C@@H](C)[C@@](O)(O2)C(=O)C(=O)N2CCCC[C@H]2C(=O)O[C@H]([C@H](C)C[C@@H]2CC[C@@H](OC(=O)NCCOCCOCCOCCOCCOCCOCCOCCOCCC(=O)N3CCc4cc(Cn5nc(-c6ccc7oc(N)nc7c6)c6c(N)ncnc65)ccc4C3)[C@H](OC)C2)C[C@@H](O)[C@H](C)/C=C(\C)[C@@H](O)[C@@H](OC)C(=O)[C@H](C)C[C@H](C)/C=C/C=C/C=C/1C | – | – | patients with advanced solid tumours | intravenous, 12 mg weekly, any grade | – | fatigue incidence | 41.7%
C#CCN(C)[C@H](C)Cc1ccccc1 | – | – | dentate gyrus granule cells, APP/PS1 mice | oral, 10 mg/kg, 336 h, 2 weeks treatment, with: 300 µA stimulation | – | evoked spike probability | 0.644 ± 0.162
CCCCCc1cc(O)c2c(c1)OC(C)(C)[C@@H]1CCC(C)=C[C@@H]21 | – | spontaneous activity | ICR mouse, male | intravenous | – | ED50 | 15 µmol/kg
CC(C)C[C@H](CN)CC(=O)O | – | mechanical withdrawal threshold | mouse, carrageenan inflammatory pain | oral | – | ED50 | 6.72 mg/kg
CC(C)C[C@H](CN)CC(=O)O | – | laser-evoked potentials | healthy male subjects, capsaicin responders, capsaicin-treated skin | 150 mg | reference: placebo | LEP N2-P2 amplitude difference | -3.53 µV
C[C@H]1CN(c2n[nH]c3nc(N[C@H]4CC[C@H](NS(=O)(=O)CCC(F)(F)F)CC4)ncc23)CCO1 | Polyadenylate-binding protein 4 (Homo sapiens, UniProt Q13310) | Kinobeads competition, measured: PABPC4 | – | 0.16 µM, unit not given | reference: vehicle | remaining binding | 1.14
CC1(C)C(C(=O)c2cn(CCCCCF)c3ccccc23)C1(C)C | – | antinociception, tail withdrawal warm water | ICR mouse male | intravenous | – | ED50 | 3.3 µmol/kg
CNC1(c2ccccc2Cl)CCCCC1=O (racemic) | – | intracerebral microdialysis | BALB/cJ mice, medial prefrontal cortex | intraperitoneal, 10 mg/kg, 24 h, 0 to 120 min sampling | reference: vehicle | extracellular GABA AUC | increased
C[C@]12CC[C@H]3[C@@H](CC=C4CC(O)CC[C@@]43CO)[C@@H]1CCC2O (stereo partly shown) | – | – | rat, GAN diet-induced MASH | intraperitoneal, 20 mg/kg daily, final two weeks, GAN diet 43 weeks | reference: vehicle | liver weight, ratio, to body weight | decreased
CN1CC[C@]23c4c5ccc(O)c4O[C@H]2[C@@H](O)C=C[C@H]3[C@H]1C5 | – | hot plate latency | ICR mice | intraperitoneal, 10 mg/kg, 3 h | – | maximal possible effect | ~30%
CC[C@H](C)[C@@H]1NC(=O)[C@@H]2CCCN2C(=O)[C@H](CC(C)C)NC(=O)[C@H](CC(C)C)NC(=O)CNC(=O)[C@@H](NC(=O)[C@@H](NC(=O)[C@H](CC(=O)O)NC(=O)CNC(=O)[C@@H](NC(=O)[C@H](C)NC(=O)CNC(=O)[C@H](CCCCN)NC(=O)[C@H](CC(C)C)NC(=O)[C@H](CC(C)C)NC(=O)[C@H](CCCCN)NC(=O)CNC(=O)[C@@H](NC(=O)[C@@H](N)CC(C)C)C(C)C)C(C)C)C(C)C)CSSC[C@@H](C(=O)O)NC1=O | – | RNA-seq, measured: Ighv8-8 mRNA | mouse traumatic brain injury, frontal cortex and hippocampus | dose not given | reference: TBI plus compound vs TBI | log2 fold change | -4.61
COc1ccc(N2C(=O)N(c3c(C)cccc3Cl)Cc3cnc(Nc4ccc(C5CCN(C)CC5)cc4OC)nc32)nc1 | MAP3K11 (Homo sapiens, UniProt Q16584) | kinase activity, inhibitor | – | 0.5 µM, MLK3 | – | inhibition | 2.31%
COc1cc(Nc2ncc(F)c(Nc3ccc4c(n3)NC(=O)C(C)(C)O4)n2)cc(OC)c1OC | NMUR1 (Homo sapiens, UniProt Q9HB89) | – | – | – | – | IC50 | > 10 µM
CN1CC[C@]23c4c5ccc(O)c4O[C@H]2[C@@H](OS(=O)(=O)O)C=C[C@H]3[C@H]1C5 | – | tail withdrawal latency test | STZ-diabetic rats | ip, 3 mg/kg daily, 9 days, tolerance | – | reduction of antinociceptive effect | ~10%

For quick reference, copied from above:
SMILES | tested on | test | test system | setting | scale | quantity | result
CCN(CC)C(=O)[C@@H]1C=C2c3cccc4[nH]cc(c34)C[C@H]2N(C)C1 | – | – | healthy participants | dose not given, end-of-study assessment | reference: compound over placebo | participants rating session more pleasant | 30%
